Experimental data gathered from unrelated publications.
Protocols differ between the studies behind these lines. ± gives the spread as reported.
Histone acetyltransferase RTT109 with Vps75: Histone acetyltransferase RTT109, with Vps75 (Saccharomyces cerevisiae, UniProt Q07794)
Chain of UniProt Q07794 (whole entry, looked up): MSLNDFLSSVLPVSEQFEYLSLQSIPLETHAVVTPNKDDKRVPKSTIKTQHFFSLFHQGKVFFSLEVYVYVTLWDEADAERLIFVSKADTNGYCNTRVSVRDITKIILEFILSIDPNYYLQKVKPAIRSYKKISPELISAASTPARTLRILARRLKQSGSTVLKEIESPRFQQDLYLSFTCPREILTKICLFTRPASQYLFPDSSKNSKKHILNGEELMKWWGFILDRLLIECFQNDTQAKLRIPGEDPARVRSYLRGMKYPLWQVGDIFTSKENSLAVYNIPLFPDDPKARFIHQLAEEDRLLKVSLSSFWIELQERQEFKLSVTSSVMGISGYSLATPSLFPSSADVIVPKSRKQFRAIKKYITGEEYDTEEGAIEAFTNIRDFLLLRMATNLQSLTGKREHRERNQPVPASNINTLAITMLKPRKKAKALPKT
Chain of UniProt P10632 (whole entry, looked up): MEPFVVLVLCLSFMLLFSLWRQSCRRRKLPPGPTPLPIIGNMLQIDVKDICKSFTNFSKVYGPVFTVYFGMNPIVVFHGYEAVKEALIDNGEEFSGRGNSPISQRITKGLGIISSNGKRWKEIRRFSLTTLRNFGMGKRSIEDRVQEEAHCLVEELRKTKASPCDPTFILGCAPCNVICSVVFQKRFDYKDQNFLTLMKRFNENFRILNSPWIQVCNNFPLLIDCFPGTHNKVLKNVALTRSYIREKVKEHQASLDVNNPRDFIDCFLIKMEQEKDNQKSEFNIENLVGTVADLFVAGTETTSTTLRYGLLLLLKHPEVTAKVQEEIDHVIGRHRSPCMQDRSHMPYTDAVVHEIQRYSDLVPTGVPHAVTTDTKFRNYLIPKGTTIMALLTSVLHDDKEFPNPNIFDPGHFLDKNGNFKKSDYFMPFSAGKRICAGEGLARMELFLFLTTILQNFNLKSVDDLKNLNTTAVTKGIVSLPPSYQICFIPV
Chain of UniProt P07948 (whole entry, looked up): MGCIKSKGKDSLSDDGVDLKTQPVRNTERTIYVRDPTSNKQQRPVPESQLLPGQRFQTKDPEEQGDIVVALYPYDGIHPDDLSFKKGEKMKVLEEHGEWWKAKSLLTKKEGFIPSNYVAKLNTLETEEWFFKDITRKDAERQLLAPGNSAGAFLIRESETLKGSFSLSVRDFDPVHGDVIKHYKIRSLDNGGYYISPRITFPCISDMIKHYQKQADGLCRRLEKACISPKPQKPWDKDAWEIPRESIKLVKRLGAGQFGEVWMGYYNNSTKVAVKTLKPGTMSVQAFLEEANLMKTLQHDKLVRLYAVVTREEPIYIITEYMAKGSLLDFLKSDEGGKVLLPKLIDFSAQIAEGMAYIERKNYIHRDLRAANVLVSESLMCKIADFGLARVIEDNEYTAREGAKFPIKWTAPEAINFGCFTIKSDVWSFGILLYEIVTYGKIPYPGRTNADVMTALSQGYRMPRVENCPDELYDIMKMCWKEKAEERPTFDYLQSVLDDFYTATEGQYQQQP
Chain of UniProt Q15375 (whole entry, looked up): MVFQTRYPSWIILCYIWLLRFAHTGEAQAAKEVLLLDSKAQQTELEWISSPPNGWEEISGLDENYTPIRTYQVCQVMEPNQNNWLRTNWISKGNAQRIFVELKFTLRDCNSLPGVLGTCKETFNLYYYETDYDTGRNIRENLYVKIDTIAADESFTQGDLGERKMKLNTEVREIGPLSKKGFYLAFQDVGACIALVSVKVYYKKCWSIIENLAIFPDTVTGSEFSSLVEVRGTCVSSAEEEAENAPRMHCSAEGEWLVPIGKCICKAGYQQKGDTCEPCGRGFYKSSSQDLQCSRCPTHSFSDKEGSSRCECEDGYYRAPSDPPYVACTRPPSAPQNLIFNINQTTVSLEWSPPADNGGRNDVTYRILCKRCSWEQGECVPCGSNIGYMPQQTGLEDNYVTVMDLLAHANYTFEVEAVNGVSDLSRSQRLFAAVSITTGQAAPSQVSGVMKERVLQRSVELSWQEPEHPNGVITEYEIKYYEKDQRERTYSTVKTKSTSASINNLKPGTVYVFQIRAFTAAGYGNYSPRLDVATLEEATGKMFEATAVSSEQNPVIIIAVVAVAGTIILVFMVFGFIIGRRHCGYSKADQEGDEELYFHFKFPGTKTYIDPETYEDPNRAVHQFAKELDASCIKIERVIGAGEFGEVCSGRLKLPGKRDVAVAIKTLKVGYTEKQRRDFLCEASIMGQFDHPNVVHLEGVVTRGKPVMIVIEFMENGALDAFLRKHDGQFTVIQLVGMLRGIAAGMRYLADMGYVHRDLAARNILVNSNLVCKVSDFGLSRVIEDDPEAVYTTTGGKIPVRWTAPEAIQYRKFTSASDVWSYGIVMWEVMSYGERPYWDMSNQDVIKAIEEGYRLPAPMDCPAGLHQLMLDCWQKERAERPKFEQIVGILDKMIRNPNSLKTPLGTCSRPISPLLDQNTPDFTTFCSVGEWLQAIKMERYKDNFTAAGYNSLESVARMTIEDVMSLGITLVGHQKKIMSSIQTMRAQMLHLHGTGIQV
Chain of UniProt Q86UE8 (whole entry, looked up): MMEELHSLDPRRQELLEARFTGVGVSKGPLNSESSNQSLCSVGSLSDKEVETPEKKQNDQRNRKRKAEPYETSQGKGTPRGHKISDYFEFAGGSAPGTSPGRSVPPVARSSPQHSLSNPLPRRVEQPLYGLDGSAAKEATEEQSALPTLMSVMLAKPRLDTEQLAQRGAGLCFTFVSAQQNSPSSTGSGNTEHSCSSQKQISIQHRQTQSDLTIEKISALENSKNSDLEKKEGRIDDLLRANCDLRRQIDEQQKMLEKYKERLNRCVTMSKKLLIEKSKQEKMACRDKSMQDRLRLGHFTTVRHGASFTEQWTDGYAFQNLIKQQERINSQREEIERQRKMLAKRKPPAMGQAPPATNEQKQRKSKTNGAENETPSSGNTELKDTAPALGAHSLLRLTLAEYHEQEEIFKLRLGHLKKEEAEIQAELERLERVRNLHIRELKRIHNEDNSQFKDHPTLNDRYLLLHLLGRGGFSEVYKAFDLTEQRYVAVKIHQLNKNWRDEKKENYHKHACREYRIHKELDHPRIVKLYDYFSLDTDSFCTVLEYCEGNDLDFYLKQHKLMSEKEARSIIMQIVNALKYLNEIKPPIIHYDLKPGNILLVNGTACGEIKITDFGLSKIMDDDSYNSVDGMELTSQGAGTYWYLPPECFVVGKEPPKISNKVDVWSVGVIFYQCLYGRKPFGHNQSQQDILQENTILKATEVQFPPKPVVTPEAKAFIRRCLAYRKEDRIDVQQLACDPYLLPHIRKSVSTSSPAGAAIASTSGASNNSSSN
Chain of UniProt Q8IXJ6 (whole entry, looked up): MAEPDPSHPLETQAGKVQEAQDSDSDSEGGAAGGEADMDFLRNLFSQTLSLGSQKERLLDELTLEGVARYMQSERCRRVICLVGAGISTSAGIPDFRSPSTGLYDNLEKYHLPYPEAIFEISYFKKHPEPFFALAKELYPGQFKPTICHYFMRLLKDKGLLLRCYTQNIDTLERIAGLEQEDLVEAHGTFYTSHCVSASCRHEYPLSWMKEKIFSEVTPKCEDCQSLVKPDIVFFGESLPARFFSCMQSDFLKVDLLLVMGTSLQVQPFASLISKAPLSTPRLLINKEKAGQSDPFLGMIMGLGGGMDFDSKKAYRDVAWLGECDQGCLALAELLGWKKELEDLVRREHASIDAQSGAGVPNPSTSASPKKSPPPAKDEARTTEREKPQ

CC(C)(C)c1ccc(OC2=CS(=O)(=O)c3ccccc32)cc1  IC50 (Histone acetyltransferase RTT109 with Vps75; enzyme activity, inhibitor, HTS, CPM-based, dose response): > 125 µM
Cc1cnc(-c2ccc(-c3ccc(NC(=O)Nc4c(F)cc(F)cc4F)cc3F)c3c2C(=O)NC3)[nH]1  IC50 (Tyrosine-protein kinase Lyn, isoform B (LYN, Homo sapiens, UniProt P07948); enzyme activity, inhibitor; with: ATP at Km): 0.0069 µM
c1ccc(CNc2nc(-c3ccccc3)no2)cc1  IC50 (Histone acetyltransferase RTT109 with Vps75; enzyme activity, inhibitor, HTS, CPM-based, dose response): > 125 µM
CC[C@@H]1[C@H](F)C(=O)N[C@@H]1COc1nccc2cc(C(N)=O)c(OC)cc12  IC50 (Serine/threonine-protein kinase tousled-like 2 (TLK2, Homo sapiens, UniProt Q86UE8); ATP-site probe binding, ActivX profiling; THP-1 cell lysate; Lys2 site): 1.2 µM
CSc1ccccc1C(=O)NCCn1cc(C(=O)NCc2cccc(C)n2)c(=O)c2cc3c(cc21)OC(F)(F)O3  IC50 (Cytochrome P450 2C8 (CYP2C8, Homo sapiens, UniProt P10632); enzyme activity, inhibitor; human liver microsomes; 20 min, 30 min NADPH preincubation, with: amodiaquine 2 µM): > 100 µM
CN(C)C(=O)c1cc2cnc(Nc3cncc(-c4ccc5c(=O)cc(N6CCOCC6)oc5c4)c3)nc2n1C1CCCC1  IC50 (Bromodomain-containing protein 4, BD1 (BRD4, Homo sapiens, UniProt O60885); inhibitor): > 10 µM
O=S1(=O)C=C(N2CCCC2)c2ccccc21  IC50 (Histone acetyltransferase RTT109 with Vps75; enzyme activity, inhibitor, HTS, CPM-based, dose response): > 125 µM
COc1cc(/C=C2\CCCC(C3(O)C(=O)Nc4ccc(Br)cc43)C2=O)cc(OC)c1OC (stereo not shown)  IC50 (ERK; enzyme activity): 11 µM
CCCCCCCCCCCCNC(=S)NCCCC[C@H](NC(=O)OCc1ccccc1)C(=O)N[C@@H](Cc1c[nH]c2ccccc12)C(=O)N[C@@H](CCCNC(=N)N)C(N)=O  IC50 (NAD-dependent protein deacetylase sirtuin-2 (SIRT2, Homo sapiens, UniProt Q8IXJ6); enzyme activity, inhibitor): 5.3 ± 0.5 µM
CN1CCN(c2ccc(Nc3ncc4cc(C#N)c(=O)n(C5CCCC5)c4n3)cc2)CC1  IC50 (Ephrin type-A receptor 7 (EPHA7, Homo sapiens, UniProt Q15375)): 7.17 µM
